Measurements from different studies.
Every numbered part comes from another study and shows a few of its results, in no order.

Block 1
Target: RNA binding protein fox-1 homolog 2, RRM domain, GST-SBP tag (RBFOX2, Homo sapiens, UniProt O43251-10, residues 100-194)
Technique: RNA Bind-n-Seq
Form: RNA
Medium: in vitro
Concentration: 365 nM
Setting: natural RNA segment, single round, ends assumed
Relative to: no-protein control
Reading: higher = stronger binding
Shared flanks, not repeated: GGGAGUUCUACAGUCCGACGAUC … UGGAAUUCUCGGGUGCCAA
Construct (chain): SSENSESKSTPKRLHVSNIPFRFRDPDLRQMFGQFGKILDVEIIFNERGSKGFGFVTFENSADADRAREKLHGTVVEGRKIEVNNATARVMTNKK
Oligonucleotide	RBNS enrichment (R)
GGGGAAUACAGCUCUCAGUGAUCAGCAGGGAGUUUAUUUGAGGACAUCAGUCACCUUUGGGGUUGCCAUGUACAAUGAGAUUUAUAAUCAUGAUACUCUUCGGUGGUAGU	0.446
AUAACCAAGAACCUUCAGGAUGCUUGUAACCAAGUACUUUCAGGAUGCUUUUUGUAUGUAUAUCACAUAGAGUAGGUUGGUUUCCUGAGUAAUUGGGAUUCCAACUAGAU	0.294
AAAAAACAAACAAAAAAACCAAACCACCUCUACAUAUUAUGGAAAGAAAAUAUUUUUGUCAAUUCUUAUUCUUUUAUAAUUAUGUGGUAUGUAGACUCAUUAAACAAUUC	0.791
UCCACUGCUCUUCACUGGGUUCACUUCCAAGGAGACUAAUGGCUCUAUUGUAAAAAUUGCUCUUAAUUCUUGAAGAGGCUACUGAGAAGCAGUGGGGUAGAUCUCAUGAG	0.28
AUGUGCAAGGGUUUGGCUCGUGUCAUUUGAAAACUCCUGGCUUAUCUAAUGGGACCAGCUUGUGAAGUUUAUAGCCUUAAAGAAAUCUCUGUGCUAAGUUUUAGAACAGU	1.18
UGCUUACUGUAACUGCGGCCGGUUUAGUGACCCCAUGACUUACAGCCGGUUCUUACCUCUUAGGUGAAGGAGAUGACAUGUUUUUAGAAUUGCUGUGCAAGGCUCACCCU	0.68
GAAGAGCUUUGCUGGGCCCUGGCUUCCCUGCCCUCGCCUUCACCUCUGUCAGCAGGUGGCCUUGCCUGGGGAGCCCCAUGUGUGGCCCACCCCACCAGGCCAUCCCCAUA	0.221
UGGGGAAGGGGCUGCCAACGAACCAGACUCAGUGACCACGUCAUGACAGAACAGCACAUCCUGGCCAGCACCCCUGGCUGGAGUGGGUUAAAGGGACGAGUCUGCCUUCC	0.416
ACCAGUUCUGCCAGUAACUGGUUUUAGAACCUUGGGCAAGUUAAAGAAUGUCUCCCAGCCUCAGUUUCCCUAUUUGUAAAAUGGAAAUAAUGGUAGCUACCUCAAACCUC	1.8
AUGCCAUGCUGGGGUGACAUUUUAGAGACUGACCGAAAUAGGUGAGACCCUGCCUGUAUUCAGAAAUGUGGAACAGAGAAAUGGUGGGCCAGGAGUGAAGGCAGAUUUAG	1.05
CCCAGCUCCUUAUACUGGGCACCCGGGCCCCUGACAGGAGUGGGUUGGGGGGCAGUUGGUUUGGUCUUCCUUCUAGGAGUAUGAGGGCAGCCUGUCUAGUUUGUAGAUCC	0.93
CACCAUCCACCAGACAGACCACCUGACCCCUUCUCAACUCUGUAACAUGGACGCAACCUCAACCCAGCGCAGUUACAACUUCACUAUCAGCGGAAGGGGAGAAAAACCGA	0.454

Block 2
Target: Sal-like protein 4, full length isoform B (SALL4, Homo sapiens, UniProt Q9UJQ4-2, residues 1-616)
Technique: universal PBM
Form: double-stranded DNA, one strand shown
Medium: in vitro
Concentration: not given
Setting: 8-mer, flanks averaged, mean of replicates
Reading: higher = stronger binding
Oligonucleotide	E-score
GACTTGGC	-0.179
CACAACTG	-0.229
AGATCCCT	-0.168
CGCAGTGC	-0.244
CATTTTCA	0.261
AGCCGATC	0.0166
GCGTGTCA	0.0304
CGGCGGGC	-0.373
ACCTTCAA	0.21
AGTCACAA	0.0408
AACGACCG	-0.117
CAGTAAGA	0.0574

Block 3
Target: RING finger protein unkempt homolog, zinc fingers 1-6, GST-SBP tag (UNK, Homo sapiens, UniProt Q9C0B0, residues 30-357)
Sequence of UniProt Q9C0B0 (30-357, looked up): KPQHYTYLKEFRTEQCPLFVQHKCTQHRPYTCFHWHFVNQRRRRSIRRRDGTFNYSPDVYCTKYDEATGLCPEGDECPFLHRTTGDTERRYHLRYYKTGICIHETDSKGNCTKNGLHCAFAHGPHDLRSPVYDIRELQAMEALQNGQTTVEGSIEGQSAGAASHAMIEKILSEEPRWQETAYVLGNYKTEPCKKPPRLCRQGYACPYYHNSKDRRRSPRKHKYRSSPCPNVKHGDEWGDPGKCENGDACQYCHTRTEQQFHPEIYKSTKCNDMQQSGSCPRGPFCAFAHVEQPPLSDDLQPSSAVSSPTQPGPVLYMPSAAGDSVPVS
Technique: RNA Bind-n-Seq
Form: RNA
Medium: in vitro
Concentration: not given
Setting: RNA with constant flanks, ends assumed
Relative to: input RNA pool
Reading: higher = stronger binding
Shared flanks, not repeated: GGGAGUUCUACAGUCCGACGAUC … CAACAGAGGAUUGAGCAUCA
Oligonucleotide	bound/input enrichment [ratio]
ACUCCUCCCCCUACUCCACCGGACCUCAACCAGGACUUCAGUGGAUUUCAGCUUCCCGUGGAUGUUGCACUCAAACGGGCUGCAGAGAUGGAGCUUCAGGCAAAACUUACAGCUUAACCC	0.186
UACAGAGGAAGGGGUAGAGGGUAUUAUCAAGGAGGAGGAGGGAGAUACCAUCGAGGUGGCUACCGACCUGUCUGGAAUAGAAGGCACUCUAGGAGUCCUAGACGAGGUCGGUCACGGUCC	0.445
AGAACAAAUAAAGGGCUCCAGCUACGGCAUGGCAAUGACCAGCGAGUGUUCCGCCCCGAGUUUGUGUCCAACCAAGAAUUCACUGAAAGUGAAUUCAUGAAGUGGAAAGAAGCGAUGUUU	0.115
GAACCUGCUCUUGCAUCAGUGGUAAUCCAUAAGGAGGCCACUGUCUUUGAUCUUCCUAAAUUCCGUGUUUGUGGUAGUUCUCAAGAGAGUGACUCAUUACCUAACUCAGCUCAUGAUCGA	0.151
GGAGGGUGAGCACUGGAGCUGGAAAGGCCAGGAGGGCGGGGCUCGAAGUUGUGGGCGGAGACCCGGGGCGUGGCCAAAUUGAUCGUGUACUGUGAAAGAGGUACAGUGUGUUGCAAAUAG	0.773
ACUUGGGGCUCUGCAGGACCUUCUCUGUCCAGCGCCCCCUUUCUGUUGUGCGAUUAGUUGCCGCUGCCAUGCUCAGAAUUGCCUUUUGAGAGCUGAAGCAAGGUGCUUACUGUCACCUGA	0.137

Block 4
Target: Prothrombin, mature alpha-thrombin (F2, Homo sapiens, UniProt P00734)
Technique: aptamer microarray, sandwich
Form: DNA with 2'F-ANA
Medium: in vitro
Concentration: 200 nM
Setting: whole 15-mer aptamer, many near background
With: Cy3 exosite-II aptamer, 400 nM
Reading: higher = stronger binding
Oligonucleotide: GGTTGGTGTGGTTGG
Modification	mean fluorescence intensity [a.u.]
2'F-ANA at 5 6 7 10 12 13 14 15	43.6
2'F-ANA at 8 10 11 13	132
2'F-ANA at 1 7 8 10 11 12 13 15	84
2'F-ANA at 1 2 5 9 11 13 15	62.5
2'F-ANA at 5 6 7 9 10 12 15	49.9
2'F-ANA at 3 4 5 7 8	115
2'F-ANA at 1 2 5 6 9 13	48.6
2'F-ANA at 1 4 5 6 7 10 12 13 14	45.1
2'F-ANA at 2 7 9 10 11	128
2'F-ANA at 1 6 9 10 13 14 15	46.7
2'F-ANA at 3 6 14 15	519
2'F-ANA at 2 4 6 7 8 14 15	133
2'F-ANA at 5 6 9 10 12 13 14 15	43.9
2'F-ANA at 4 5 8 13 14 15	46.6
2'F-ANA at 5 6 8 10 11 12 13 15	48.5
2'F-ANA at 1 3 5 7 8 9 10 11 14	45.6
2'F-ANA at 5 7 8 9 12 14 15	49
2'F-ANA at 2 9 10 12 13 14	87.1
2'F-ANA at 3 4 10 14 15	207
2'F-ANA at 2 3 6 8 11 12 13 14	411
2'F-ANA at 1 2 3 4 6 9 10 11	63.6
2'F-ANA at 2 4 5 8 10 12 13	57.9
2'F-ANA at 2 3 4 5 6 7 9 10 12 13	54.3

Block 5
Target: Ras GTPase-activating protein-binding protein 1, RRM domain (G3BP1, Homo sapiens, UniProt Q13283)
Sequence of UniProt Q13283 (whole entry, looked up): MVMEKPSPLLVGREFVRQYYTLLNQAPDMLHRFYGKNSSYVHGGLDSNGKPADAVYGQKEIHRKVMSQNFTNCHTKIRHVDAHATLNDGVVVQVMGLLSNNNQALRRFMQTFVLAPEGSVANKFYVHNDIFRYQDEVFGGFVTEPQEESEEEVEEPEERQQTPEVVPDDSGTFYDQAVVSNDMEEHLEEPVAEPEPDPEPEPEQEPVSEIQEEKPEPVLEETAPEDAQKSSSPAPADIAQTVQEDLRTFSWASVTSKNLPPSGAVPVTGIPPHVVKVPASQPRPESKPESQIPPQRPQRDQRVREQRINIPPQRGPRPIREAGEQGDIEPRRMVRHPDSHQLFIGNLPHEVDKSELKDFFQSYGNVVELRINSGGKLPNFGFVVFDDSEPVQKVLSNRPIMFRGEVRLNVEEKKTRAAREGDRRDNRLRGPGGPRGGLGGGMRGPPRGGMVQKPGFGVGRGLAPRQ
Technique: RNA Bind-n-Seq
Form: RNA
Medium: in vitro
Concentration: 1 µM
Setting: whole 134-nt RNA, ends assumed
With: 150 mM KCl
Relative to: input library
Reading: higher = stronger binding
Shared flanks, not repeated: GGGAGUUCUACAGUCCGACGAUC … UGGAAUUCUCGGGUGUCAAGG
Oligonucleotide	log2 enrichment
UCCUCAAGUCCUGUGCUACACAUCGUAUGUACCGAAUCGGAGGGGAGGAGGAAAGUAUUAUGUUACGCCGUUCGGAUCUGCACUUCCAGC	-0.181
UAGUUUAUGCCAACGUGACUUCAUUCAUACAGAUGAACCAAGGAUCGGGAUAGCAGUAUAAAAUUAGAAUCAAGACAGCUGACUGCUCAG	-0.385
AGUCCUGUGCUACACAUCGUAUGUACCGAAUCGGGUUUGGGAAAGGGUUUUUUUGGGAAAGUAUUAUGUUACGCCGUUCGGAUCUGCACU	0.441
UUGCCCUGGUGGCAUGCGGGGAGGAAGAGGUGGCCUCAUGGAUCGUGGUGGUCCCGGUGGAAUGUUCAGAGGUGGCCGUGGUGGAGACAG	0.728
AGUCCUGUGCUACACAUCGUAUGUACCGAAUCGGGGCCCCGGGCCCCGGCCCCGGGGAAAGUAUUAUGUUACGCCGUUCGGAUCUGCACU	-0.755
ACCAUGCAGGUGGGCAUCUUUGGGAAGUGGGGCAAGGGGGGGAUAGGGAGGGGGUUAACACUUUGGGAACAGGUGGUCCCAGGUCGUUUC	0.654
ACCAUGCAGGUGGGCAUCUUUGGGAAGUGGGGCAAGGGGGGGAUAGGGAGGGGGGUAACACUUUGAAAACAGGUGGUCCCAGGUCGUUUC	-0.473
ACCAUGCAGGUGGGCAUCUUUGGGAAGUGGGGCAAGGGGGGGAUAGGGAGGGGGGUAACACUUUGGGAACAGGUGGUCCCAAGUCGUUUC	0.449
CAAGUCCUGUGCUACACAUCGUAUGUACCGAAUCGGGUUUGGGUUUGGGAAAGGGAAAGUAUUAUGUUACGCCGUUCGGAUCUGCACUUC	0.849
GUCCUGUGCUACACAUCGUAUGUACCGAAUCGGGAAAAAGGGAAAGGGUUUUUUUGGGAAAGUAUUAUGUUACGCCGUUCGGAUCUGCAC	0.113

Block 6
Target: Histone acetyltransferase KAT6A, winged helix 1, GST fusion (KAT6A, Homo sapiens, UniProt Q92794, residues 1-85)
Technique: protein binding microarray
Form: double-stranded DNA, one strand shown
Medium: in vitro
Concentration: not given
Setting: 8-mer, flanks averaged, mean of 2 arrays, mostly near background
Relative to: not given
Reading: higher = stronger binding
Construct (chain): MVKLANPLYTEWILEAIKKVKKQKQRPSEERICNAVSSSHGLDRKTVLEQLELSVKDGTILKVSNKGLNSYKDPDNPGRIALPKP
Oligonucleotide	E-score
CGACGGAA	0.386
GTGTGCCA	-0.153
AAGATTCC	-0.0784
GCCCCAGC	0.0443
CTCTTTAA	-0.146
AACCACTG	-0.122
AAATGGGG	-0.237
ACTTCCGG	0.144
GCACGACA	-0.0454
AACGCCGT	0.387
CACCCGTC	0.297
GCAAAAAA	-0.0723
ATACTGCA	-0.0736
GGTCGTAC	-0.0011
GATATCCC	0.0773

Excerpt of the above (block 4):
Modification	mean fluorescence intensity [a.u.]
2'F-ANA at 5 6 8 10 11 12 13 15	48.5
2'F-ANA at 1 2 5 6 9 13	48.6
2'F-ANA at 5 6 7 9 10 12 15	49.9
2'F-ANA at 3 6 14 15	519
2'F-ANA at 1 2 3 4 6 9 10 11	63.6
